# Measurements pooled from the literature.
# Parts stem from different laboratories: compare values within a part only. Positions count from the first letter of the parent shown.
# Sequence of UniProt P07948 (whole entry, looked up): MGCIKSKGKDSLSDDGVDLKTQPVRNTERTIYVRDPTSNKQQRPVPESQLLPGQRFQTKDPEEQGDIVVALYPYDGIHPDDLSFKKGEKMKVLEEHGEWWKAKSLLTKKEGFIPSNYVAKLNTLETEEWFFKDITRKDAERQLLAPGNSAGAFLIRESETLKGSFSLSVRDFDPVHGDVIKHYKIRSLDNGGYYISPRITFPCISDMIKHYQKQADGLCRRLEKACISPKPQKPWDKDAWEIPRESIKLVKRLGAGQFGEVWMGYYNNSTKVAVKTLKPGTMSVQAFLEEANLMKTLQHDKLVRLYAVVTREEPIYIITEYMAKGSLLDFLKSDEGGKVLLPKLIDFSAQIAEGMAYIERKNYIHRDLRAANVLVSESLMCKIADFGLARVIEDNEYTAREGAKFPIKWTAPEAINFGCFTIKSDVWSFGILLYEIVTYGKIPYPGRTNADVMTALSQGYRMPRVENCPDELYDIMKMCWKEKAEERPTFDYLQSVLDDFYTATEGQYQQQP
# Sequence of UniProt P35626 (whole entry, looked up): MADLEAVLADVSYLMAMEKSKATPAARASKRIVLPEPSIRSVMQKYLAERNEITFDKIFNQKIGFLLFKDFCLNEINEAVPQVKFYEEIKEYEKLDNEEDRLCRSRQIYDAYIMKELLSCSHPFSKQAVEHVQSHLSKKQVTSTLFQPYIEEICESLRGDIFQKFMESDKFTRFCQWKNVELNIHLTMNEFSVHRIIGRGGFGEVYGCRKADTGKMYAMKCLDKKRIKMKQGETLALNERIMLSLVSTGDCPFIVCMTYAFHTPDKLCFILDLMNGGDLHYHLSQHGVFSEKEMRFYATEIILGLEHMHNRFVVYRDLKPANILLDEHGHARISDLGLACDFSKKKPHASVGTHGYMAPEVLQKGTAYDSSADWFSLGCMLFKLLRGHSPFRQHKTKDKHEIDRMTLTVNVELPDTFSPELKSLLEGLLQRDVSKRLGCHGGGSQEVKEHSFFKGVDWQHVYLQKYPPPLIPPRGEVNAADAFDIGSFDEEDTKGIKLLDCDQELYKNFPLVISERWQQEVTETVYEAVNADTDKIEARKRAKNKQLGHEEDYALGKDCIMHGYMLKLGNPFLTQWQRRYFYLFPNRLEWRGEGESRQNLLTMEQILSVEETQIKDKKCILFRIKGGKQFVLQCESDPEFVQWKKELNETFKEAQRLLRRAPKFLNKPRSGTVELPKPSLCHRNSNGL

# Sample 1
# Target: HLF, bZIP domain (human)
# Method: DHFR protein complementation
# Matrix: yeast
# Setting: single substitutions, most at no-binding floor
# Relative to: wild-type JUN-FOS pair
# Direction: higher = stronger binding
# Parent: JUN, bZIP domain (human); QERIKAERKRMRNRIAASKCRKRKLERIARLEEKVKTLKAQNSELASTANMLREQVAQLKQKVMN; partner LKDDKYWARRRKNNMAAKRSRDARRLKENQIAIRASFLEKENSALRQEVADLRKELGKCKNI
Substitution,binding fitness
M51L,-1.42 natural log
R30V,-1.37 natural log
K39L,-1.36 natural log
T37G,-1.41 natural log
A40Q,-1.39 natural log
R53W,-1.37 natural log
M51R,-1.34 natural log
R30M,-1.46 natural log

# Sample 2
# Compound: FC(F)(F)c1ccc(/C=C/c2nc(COc3ccc(CCCCn4ccnn4)cc3)co2)cc1
# Read-out: enzyme activity
# Action: inhibitor
# Concentration: 0.5 µM
# Relative to: control
target,remaining activity
"G protein-coupled receptor kinase 3 (GRK3, Homo sapiens, UniProt P35626)",104%
"Tyrosine-protein kinase Lyn, isoform B (LYN, Homo sapiens, UniProt P07948)",104%
"Mitogen-activated protein kinase 9 (MAPK9, Homo sapiens, UniProt P45984)",106%

# Sample 3
# Target: Sal-like protein 4, full length isoform B (SALL4, Homo sapiens, UniProt Q9UJQ4-2, residues 1-616)
# Method: universal PBM
# Form: double-stranded DNA, one strand shown
# Matrix: in vitro
# Concentration: not given
# Setting: 8-mer, flanks averaged, mean of replicates
# Direction: higher = stronger binding
Strand,E-score
GAATGCTC,-0.147
CCTCCTGA,-0.163
CGTATAGC,0.013
ATCGTATC,0.183
ATGATCAA,0.266
CAGCTTTC,-0.181
CGGATCCG,-0.249
AGGTATAG,0.0598

# Sample 4
# Target: Muscarinic acetylcholine receptor M2 (CHRM2, Homo sapiens, UniProt P08172)
# Sequence of UniProt P08172 (whole entry, looked up): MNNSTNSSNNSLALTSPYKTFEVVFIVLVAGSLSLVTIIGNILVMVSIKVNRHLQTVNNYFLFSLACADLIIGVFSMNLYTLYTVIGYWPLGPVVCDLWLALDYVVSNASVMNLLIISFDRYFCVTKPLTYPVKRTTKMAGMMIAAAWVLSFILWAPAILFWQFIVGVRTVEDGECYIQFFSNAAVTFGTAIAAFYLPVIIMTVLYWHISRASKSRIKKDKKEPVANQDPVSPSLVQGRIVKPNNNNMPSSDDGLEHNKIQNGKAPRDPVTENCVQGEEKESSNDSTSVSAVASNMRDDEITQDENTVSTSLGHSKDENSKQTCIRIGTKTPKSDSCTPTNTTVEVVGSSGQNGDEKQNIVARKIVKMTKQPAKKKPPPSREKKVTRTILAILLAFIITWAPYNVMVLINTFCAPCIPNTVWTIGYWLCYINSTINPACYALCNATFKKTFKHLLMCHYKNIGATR
# Read-out: binding
# Method: radioligand binding
# Concentration: 10 µM
SMILES,inhibition [%]
Cc1nc(Cc2cccc(C(F)(F)F)c2)sc1-c1ccc(C(N)=O)nc1,12.8
Cc1c(N2CCCC2)nc2ccc(Br)cc2c1C(=O)NC[C@H](CCC(=O)O)c1ccccc1Cl,14.6
COCc1nc2cnc3cc(-c4c(C)noc4C)c(OC[C@H]4CCNC4)cc3c2n1[C@H](C)c1ccccc1,4.05
Cc1cc(-n2nc(Cc3cc(F)cc(C(F)(F)F)c3)nc2C)ccc1C(N)=O,5.69
O=C(Nc1ccc(-n2nc(-c3cccnc3)cc2C(F)(F)F)cn1)c1ccc(-c2ccccc2)c(F)c1,9.94
CC(=O)c1c(NS(C)(=O)=O)c2cc(-c3ccc(Cl)cc3)c(-c3ccc(Cl)cc3Cl)nc2n(C)c1=O,-4.45
CC(C)CC(=O)N1CCc2nc(-c3ccc(Br)cc3)nc(N(C)Cc3ccccc3)c2C1,18.2
CCOC(=O)c1cc2cc(-c3cc(C(=O)NCc4ccc(C(=O)O)cc4)nn3C)ccc2[nH]1,-17.2
O[C@]1(C(F)(F)F)CCCC[C@H]1Nc1ccc(F)cc1,-2.71
CN(C)C(=O)Cn1cc(-c2nc([C@@](C)(c3ccc(-c4cnc(N)nc4)cc3)C3CC3)no2)cn1,-7.52
O=C(Nc1cccnn1)N1CC(CC=Cc2cncc(Oc3ccc(C(F)(F)F)cn3)n2)C1,20.7
COc1cc(-c2cn(C3CCc4ccccc4N(CC(F)(F)F)C3=O)nn2)ccc1-n1ccc(C)n1 (stereo not shown),-13.6

# Repeated from above (sample 1):
Substitution,binding fitness
M51L,-1.42 natural log
R30V,-1.37 natural log
K39L,-1.36 natural log
T37G,-1.41 natural log
